Published values gathered from unrelated publications.
Parts stem from different laboratories: compare values within a part only. Substitutions count along the parent as printed.

Sample 1 — target: CCNA2, cyclin fold, Cln2 fusion (human); method: yeast growth competition, sequencing; matrix: yeast; setting: strong parent motif; baseline: not given; reading: higher = stronger binding
Starting sequence: CDC6 docking peptide (human); TLKGRRLVFDNQL; partner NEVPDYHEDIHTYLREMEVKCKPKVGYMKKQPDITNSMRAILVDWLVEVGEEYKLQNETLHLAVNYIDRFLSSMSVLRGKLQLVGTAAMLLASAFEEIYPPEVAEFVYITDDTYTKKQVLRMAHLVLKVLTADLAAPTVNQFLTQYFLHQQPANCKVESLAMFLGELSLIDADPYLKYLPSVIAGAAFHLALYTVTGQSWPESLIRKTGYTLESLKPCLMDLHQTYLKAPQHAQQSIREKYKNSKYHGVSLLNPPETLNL
Variant | normalised enrichment score
TLKGRLLVFDNQL [R6L] | 1.33
TLKGRRLVFDNTL [Q12T] | 3
TLKGRRKVFDNQL [L7K] | 1.35
TLKGRRLVFDEQL [N11E] | 3.52
TLKGRRLVFDNAL [Q12A] | 3.12
TLKGRRRVFDNQL [L7R] | 0.772
TLIGRRLVFDNQL [K3I] | 2.55
TLKGRRLVFRNQL [D10R] | 1.67
TQKGRRLVFDNQL [L2Q] | 2.34
TLKGRRLKFDNQL [V8K] | 2.52
TTKGRRLVFDNQL [L2T] | 2.87
TLKGRRLVFDNQT [L13T] | 2.52
TLKGRRLVGDNQL [F9G] | 0.78
TKKGRRLVFDNQL [L2K] | 4.21
TLKGRRLVFDNCL [Q12C] | 3.5
TLKGRRLVFDNQW [L13W] | 3.75
TLKGRPLVFDNQL [R6P] | -0.976
TLKGRRLVFKNQL [D10K] | 1.46
TLKGRKLVFDNQL [R6K] | 2.66
TLKGRRPVFDNQL [L7P] | 0.534
TLKGSRLVFDNQL [R5S] | 0.18
TLKGHRLVFDNQL [R5H] | 0.214
TLKGRRLVFMNQL [D10M] | 1.84
TLKGRRLVFWNQL [D10W] | 2.12
TLKGRRLVADNQL [F9A] | 0.372

Sample 2 — method: universal PBM; form: double-stranded DNA, one strand shown; matrix: in vitro; concentration: not given; reading: higher = stronger binding
Target: Sal-like protein 4, full length isoform B (SALL4, Homo sapiens, UniProt Q9UJQ4-2, residues 1-616)
Setting: 8-mer, flanks averaged, mean of replicates
Strand | E-score
CGAATTAA | 0.158
AAATGGTA | 0.276
CACCAGCA | -0.1
CGCGCAGA | -0.134
ATCTGGTA | 0.167
CGTGACCA | -0.106
AAGCAGAA | 0.0944
ACTTGCCA | -0.139
CCTGAACG | -0.117
ATGACCAC | -0.0866
GAGATGAA | -0.0418
CTTAATGA | 0.146
GCTCGAGA | -0.125
GTGTGAAA | 0.21
AGCTTGAA | 0.00922
AGTGACGC | -0.207
TAGCTTAA | 0.134
TGCGTGAA | 0.0772
AAAACCAT | 0.266

Sample 3 — method: protein-binding microarray; form: double-stranded DNA, one strand shown; matrix: in vitro; concentration: 0.8 µM; setting: whole 60-bp probe, no competitor; reading: higher = stronger binding; shared flanks, not repeated: … GTCTTGATTCGCTTGACGCTGCTG
Target: Centromere-binding protein 1, full length, N-terminal tag (CBF1, Saccharomyces cerevisiae, UniProt P17106, residues 1-351)
UniProt P17106, sequence (whole entry, looked up): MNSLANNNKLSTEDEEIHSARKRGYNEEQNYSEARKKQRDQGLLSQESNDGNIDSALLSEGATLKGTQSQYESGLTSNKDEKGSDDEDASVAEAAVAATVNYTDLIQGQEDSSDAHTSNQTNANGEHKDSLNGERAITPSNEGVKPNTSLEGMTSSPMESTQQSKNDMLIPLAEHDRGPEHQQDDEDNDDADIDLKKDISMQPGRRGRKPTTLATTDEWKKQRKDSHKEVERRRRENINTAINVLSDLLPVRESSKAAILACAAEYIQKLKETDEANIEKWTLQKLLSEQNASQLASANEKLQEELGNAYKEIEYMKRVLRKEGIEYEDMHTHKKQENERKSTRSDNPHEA
Strand | fluorescence intensity [a.u.]
TGTACGAAGCTATTGAACGTGTCTATAGTAGTTAGG | 543
GAAAATTATCAATGCGACGTGATTTCTGGTTGCTAG | 607
CTAGTCTTTATGTAGCACGTTAGTGAAGCATAATTC | 614
CTAAAGATTTACTCTCCCGTGATGCCGGGCCAATTC | 819
CTATCCAGACAAAAGAACGTGCAGGCGCTTGGCTTC | 599
CTAATGTATTAGAGTCACCTAATCACCAAGCGATTC | 510
CTAGCACTACTTTTTCACCAGATTAATGGTGCATTC | 510
GAATTGATATTGTTTCACCTGTTCATCTTTAATTAG | 581
GAAGTCTGCTCTCTTCGTGTCATTCCTTATAGCTAG | 501
GAACAACTTCCATAGTACGTGCCTGCTACTGTGTAG | 533
GAAATTACCATACGTGATCTTATTAAACTCTAGTAG | 802
CTAGGGCGAAGAGGTCACGACCTATTTTTTCTTTTC | 1020
GAACGCGGAGAATGCCACATGAGTTTGATGATTTAG | 575
GAAGTAGTTCAAATTGCGGTCACGTATATGCCATAG | 1200
GAAGAGAAACTGAACGGGGTGACGCACTGCAAATAG | 515
CTAAGGAGAAATGATGGTGATATTAATATGCAGTTC | 511
GAAAGTTCTATGTACTGCATCAGAAAATGGCGATAG | 625
CTACTGTTATTTGATCTGGTGATGAGTTCTGCCTTC | 670
CTAAAAAGATAGGGTGAGGTGAGGTTCTCTGACTTC | 527
GAATAGTATATACGGCACGGGATATGGCATCTGTAG | 865
GAAAGATCAACGAAGCACGCGATGAAATTCTGCTAG | 683
CTACGGAAATCATGACATGTGCTATGGCCTGTGTTC | 872
CTATATATATTACGTCATCTGACATACGACACTTTC | 1780
GAACGCCACACCGATCACAAAACGGCTTCACCATAG | 506
CCTAACTACTATATCATCGTGGCATAGCTTCGTACA | 536

Sample 4 — method: protein-binding microarray; form: double-stranded DNA, one strand shown; matrix: in vitro; concentration: 250 nM; setting: 60-bp whole probe; together with: salmon DNA 0.4 mg/ml; baseline: random background probes; reading: higher = stronger binding; shared flanks, not repeated: GCCTAGCAC … GTCTTGATTCGCTTGACGCTGCTG
Target: Interferon regulatory factor 7, full length, phosphomimetic (IRF7, Homo sapiens, UniProt Q92985, residues 1-503, S101K/S471D/S472D/S475D/S476D/S477D/S483D/S484D/S487D)
UniProt Q92985, sequence (whole entry, unmodified, looked up): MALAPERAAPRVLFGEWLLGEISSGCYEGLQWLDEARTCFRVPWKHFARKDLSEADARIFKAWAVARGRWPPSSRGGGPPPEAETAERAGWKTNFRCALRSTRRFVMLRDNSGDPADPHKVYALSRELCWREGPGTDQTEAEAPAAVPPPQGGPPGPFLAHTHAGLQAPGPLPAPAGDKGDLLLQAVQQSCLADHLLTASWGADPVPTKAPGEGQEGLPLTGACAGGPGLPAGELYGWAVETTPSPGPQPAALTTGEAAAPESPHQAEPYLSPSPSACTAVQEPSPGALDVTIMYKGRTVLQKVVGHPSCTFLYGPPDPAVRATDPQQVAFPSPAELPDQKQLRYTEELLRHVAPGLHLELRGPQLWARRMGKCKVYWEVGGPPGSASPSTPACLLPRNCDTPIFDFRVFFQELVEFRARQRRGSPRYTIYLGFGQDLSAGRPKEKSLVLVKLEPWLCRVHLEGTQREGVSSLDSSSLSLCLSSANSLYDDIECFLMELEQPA
Strand | log fluorescence [z-score]
TCATTTTTTTATTTATAACTGTGCTAG | 1.06
TTAAGTTTCCTTTCCCTTTAGTGCTAG | 5.54
TTAGGTATCGGTCTCGGTTAGTGCTAG | 2.17
CCATGTTGCAGACTCGAAGGGTGCTAG | 0.714
TTAGGTTTCGGCTCCGGTTAGTGCTAG | 3.54
CCCTAATTCTGATTGGATAAGTGCTAG | 0.596
CGCCCACTCATGCCTCTTAAGGTGCTA | 0.279
GACGATCTCACTCTCGAGACGTGCTAG | 0.211
GACGATTTCGGGTATCGCGACGTGCTA | 0.471
GACGATCTGGGGACTGGAGACGTGCTA | -0.741
TCACCTCTAGGAATGTAACTGTGCTAG | 0.284
TTAAGTATCCTTCTCCTTTAGTGCTAG | 0.874
TTTCATTTTTTTTTTCATCAGTGCTAG | 2.04
GACGGTTTCGACAATCGGGACGTGCTA | 2.88
TTATATTTCAGACTGGATTAGTGCTAG | 0.665
GACGGTTTCCTACTGATGACGTGCTAG | 1.38
CCACATTTGATAAATCTTTGTGTGCTA | 0.459
TTAGATTTCCGTTCCGATTAGTGCTAG | 1.73
GACGGACTGCTTCTCCTGATGTGCTAG | -0.455
GACGGTATCGACACTGAGGACGTGCTA | -0.294
TTAGGTTTCGGTATCGGCTAGTGCTAG | 10.2
GACGTTATCGACACTGGGGACGTGCTA | -0.176
TTACGTATCGACACTGGGTTAGTGCTA | 0.026
TTCGTTTTGTGTCTGGGCATGTGCTAG | 1.41
TCAGGTTTCCTACTGCTTTAGTGCTAG | 1.4

Sample 5 — method: protein binding microarray; form: double-stranded DNA, one strand shown; matrix: in vitro; concentration: not given; baseline: not given; reading: higher = stronger binding
Target: Histone acetyltransferase KAT6A, both winged helices, GST fusion (KAT6A, Homo sapiens, UniProt Q92794, residues 1-181)
Setting: 8-mer, flanks averaged, mean of 2 arrays, mostly near background
Construct (chain): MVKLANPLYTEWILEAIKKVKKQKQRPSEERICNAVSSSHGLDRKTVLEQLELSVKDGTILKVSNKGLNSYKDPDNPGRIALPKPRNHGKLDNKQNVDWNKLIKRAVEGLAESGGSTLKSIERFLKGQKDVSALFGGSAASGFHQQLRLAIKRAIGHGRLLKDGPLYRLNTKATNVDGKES
Strand | E-score
CGTATACC | 0.00015
ACTACACC | -0.03
ACCAGACT | -0.254
ACCTTCCC | -0.122
CTGTGTTC | -0.145
ACCGTGCG | 0.249
AGATTGGA | -0.262
GCAGATGA | -0.147
GCAGCCCA | -0.0793
CGTCCTTC | -0.0108
GAGGAAAA | -0.115
ATAGTGAA | -0.119

Sample 6 — method: RNA Bind-n-Seq; form: RNA; matrix: in vitro; concentration: 365 nM; baseline: no-protein control; reading: higher = stronger binding
Target: RNA binding protein fox-1 homolog 2, RRM domain, GST-SBP tag (RBFOX2, Homo sapiens, UniProt O43251-10, residues 100-194)
Setting: natural RNA segment, single round, ends assumed
Shared flanks, not repeated: GGGAGUUCUACAGUCCGACGAUC … UGGAAUUCUCGGGUGCCAA
Target sequence (chain): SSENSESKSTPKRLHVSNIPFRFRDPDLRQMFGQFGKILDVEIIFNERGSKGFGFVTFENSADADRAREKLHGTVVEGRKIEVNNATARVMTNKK
Strand | RBNS enrichment (R)
GUGGAUUAAUGUCAAUGUUAAUCAGCCCCUCAAAGGGAGAGAAAAGCUGGACCUUUUCCCUUGCUGUACCAUAUUCAGCAUUUGAUUUCCAUGGGCCCCACCAUUUAUGU | 0.301
GCUAGAUCACACUGAUUCUCCUGCCGUGGAUAUGAGUUAAAACCAAGUGGUAAAGCACUUGGAUUCACCCCCAAUGACCACUCAGCACAAAAUGCAGAAAUUCCUUCUGA | 0.15
UUAUAUGCCUGGUGCACAGUGCUUAGAAGUAAGCAAUUCCCAGGUCAUAGCUCAAGAAUUGUUAGCAAAUGACAGAUUUCUGUAAGCCUAUAUAUAUAGUCAAAUCGAUU | 0.269
GGGUCAGCUCUUCUGUGGAUUGCAUGGCGUGUGAUUAAAAGCCCAUGUGUUCCCACACAUCCACAUCAUGGGAAGGUUAAUGUGUGCCUCCUUGGAACUGGGUGUUGGUG | 3.93
UGCUCAUCAGCCGCAACUUCCUGCCGACCCUGAUGCGGGUGGGCCGAGCAGUGUGGACAUCAGCCACUUUUUAUAUUCAUGUACAUUCACCUGGGGAAAAAAACGGAGGG | 0.441
GGACCCAGCCUUGAGACAGCUGCUGUGGGGACAGUACUGAAGACUCUGCAGCCCUCGGGACCCCACUCGGAGGGUGCCCUCUGCUCAGGCCUCCCUAGCACCUCCCCCUA | 0.455
AAAGGGAUAAAGAAAAAAAUACUAUUUAAGAUGUGAAAAUUACAGUCCAAAAUACUGUUCUUUCCAGGCUAUGUAUAAAAUACAUAGUGAAAAUUGUUUAGUGAUAUUAC | 0.435
UGGAGCCUUUGAGCAUGGUACGUGCUUACCUUUUUGUCUUGCUUUAGGCUAAUAAUAAUAAUAAAAAACCAAAAGGCAUCUUGUUGUGAUUUCUAUGCCAACAUCCUGCC | 0.49
AAUUACCUCCCCCUGGGUCUGUCCCACAACACGUGGGAAUUCUGGGAGAUACAAUUCAAGUUGAGAUUUGUGGGGGGACACAACCAAACCAUAUCAGCAUCCUUUCAAGA | 0.541
GUCCUGGGUUCCUUGAACAUGUUCCCAUGUAGGAGGUAAAACCAAUUCUGGAAGUGUCUAUGAACUUCCAUAAAUAACUUUAAUUUUAGUAUAAUGAUGGUCUUGGAUUG | 0.302
AUGGUUUGGUGGUCUUUAAUGUUUUGAAAAACGGAAGUGAUUAGAAGUUAAGUUACUGUUCAAAGUUGAAAAGCAUAUAUGCUACAUUUUCUGCUGAAAGGUGAUUAUAU | 0.564
AAUUUGGCAUGGAUUAAACAACCUCUACCACACUAUAGCUCUCACAUAGGCUGAACAUUUUCCUAAAUUCUACCUGUGCAGACACUGAGGGGCUCUCUACCUUUGAAACU | 0.292

Excerpt of the above (sample 3):
Strand | fluorescence intensity [a.u.]
CTAAAGATTTACTCTCCCGTGATGCCGGGCCAATTC | 819
GAATTGATATTGTTTCACCTGTTCATCTTTAATTAG | 581
TGTACGAAGCTATTGAACGTGTCTATAGTAGTTAGG | 543
GAAATTACCATACGTGATCTTATTAAACTCTAGTAG | 802
CTACGGAAATCATGACATGTGCTATGGCCTGTGTTC | 872
GAAAGTTCTATGTACTGCATCAGAAAATGGCGATAG | 625
GAAGTCTGCTCTCTTCGTGTCATTCCTTATAGCTAG | 501
CTAAAAAGATAGGGTGAGGTGAGGTTCTCTGACTTC | 527
GAACAACTTCCATAGTACGTGCCTGCTACTGTGTAG | 533
GAACGCCACACCGATCACAAAACGGCTTCACCATAG | 506
CCTAACTACTATATCATCGTGGCATAGCTTCGTACA | 536
GAAGTAGTTCAAATTGCGGTCACGTATATGCCATAG | 1200
CTATCCAGACAAAAGAACGTGCAGGCGCTTGGCTTC | 599
